Assay results pooled from the literature.
Compare with care: the assays were run in different laboratories. Values joined by “and” are separate records of one study, mostly repeats; a detail may differ. ± gives the spread as reported.
AfsR 1-980: AfsR 1-980 (Streptomyces avermitilis)
T1: AfsR 1-980 (Streptomyces avermitilis); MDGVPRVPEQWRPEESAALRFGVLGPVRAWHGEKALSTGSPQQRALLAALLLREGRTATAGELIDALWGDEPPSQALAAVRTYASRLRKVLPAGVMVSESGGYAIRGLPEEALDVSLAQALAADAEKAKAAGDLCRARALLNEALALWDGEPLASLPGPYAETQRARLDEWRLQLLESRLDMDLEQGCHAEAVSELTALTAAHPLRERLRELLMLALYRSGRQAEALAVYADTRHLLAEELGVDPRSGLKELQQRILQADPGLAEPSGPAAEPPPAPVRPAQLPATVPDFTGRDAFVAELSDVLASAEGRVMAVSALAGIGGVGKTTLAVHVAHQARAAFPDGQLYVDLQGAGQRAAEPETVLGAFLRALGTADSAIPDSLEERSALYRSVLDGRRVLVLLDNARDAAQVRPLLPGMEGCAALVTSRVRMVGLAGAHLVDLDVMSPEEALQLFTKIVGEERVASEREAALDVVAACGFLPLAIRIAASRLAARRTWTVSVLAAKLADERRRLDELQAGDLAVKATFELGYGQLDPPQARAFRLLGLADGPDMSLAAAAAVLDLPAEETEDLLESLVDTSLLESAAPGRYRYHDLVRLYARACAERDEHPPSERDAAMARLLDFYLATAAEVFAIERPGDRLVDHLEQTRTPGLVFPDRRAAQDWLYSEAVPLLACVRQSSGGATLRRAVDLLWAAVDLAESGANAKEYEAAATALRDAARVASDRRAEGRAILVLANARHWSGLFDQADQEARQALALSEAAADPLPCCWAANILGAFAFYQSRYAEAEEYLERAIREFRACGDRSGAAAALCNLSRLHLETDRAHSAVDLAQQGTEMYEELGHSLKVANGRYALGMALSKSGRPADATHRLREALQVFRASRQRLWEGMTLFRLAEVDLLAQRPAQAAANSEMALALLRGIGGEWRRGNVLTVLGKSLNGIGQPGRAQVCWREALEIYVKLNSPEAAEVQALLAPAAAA
B1: FBPA (Plasmodium falciparum, UniProt Q7KQL9); chain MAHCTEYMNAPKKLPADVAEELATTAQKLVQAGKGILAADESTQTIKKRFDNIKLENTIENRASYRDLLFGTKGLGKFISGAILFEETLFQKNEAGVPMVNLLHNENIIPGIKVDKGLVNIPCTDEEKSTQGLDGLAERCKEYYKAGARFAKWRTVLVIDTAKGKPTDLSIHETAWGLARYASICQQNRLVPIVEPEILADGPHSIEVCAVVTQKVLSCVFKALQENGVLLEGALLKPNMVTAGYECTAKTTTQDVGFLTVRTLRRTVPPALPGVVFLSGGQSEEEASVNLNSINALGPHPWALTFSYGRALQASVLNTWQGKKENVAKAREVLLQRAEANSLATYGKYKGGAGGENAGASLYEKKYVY
UniProt O43614, sequence (whole entry, unmodified, looked up): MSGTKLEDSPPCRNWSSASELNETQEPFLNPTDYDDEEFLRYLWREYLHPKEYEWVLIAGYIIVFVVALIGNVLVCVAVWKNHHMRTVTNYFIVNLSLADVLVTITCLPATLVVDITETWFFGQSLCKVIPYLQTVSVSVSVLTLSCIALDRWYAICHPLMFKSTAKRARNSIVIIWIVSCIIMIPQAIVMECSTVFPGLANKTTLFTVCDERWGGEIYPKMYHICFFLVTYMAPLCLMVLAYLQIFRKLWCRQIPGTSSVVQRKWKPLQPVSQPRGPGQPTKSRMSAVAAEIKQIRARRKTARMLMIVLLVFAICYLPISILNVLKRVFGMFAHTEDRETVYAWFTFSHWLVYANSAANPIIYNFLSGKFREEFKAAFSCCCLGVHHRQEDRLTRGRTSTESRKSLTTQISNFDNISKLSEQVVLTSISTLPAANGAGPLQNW

dynorphin — ΔF/F0 (HCRTR2 (Homo sapiens, UniProt O43614, del254-292/I293E/K294R/L160H/M161K/Q254E); sensor fluorescence, fluorescence imaging; HEK293T; concentration not given, unit not given; relative to: baseline): -0.838 and -0.639 and 0.397 and -0.603 and 0.573 and 1.71 and -0.106 and 0.691
B1 (FBPA) — Kd (TRAP C-terminal cytoplasmic tail (Plasmodium falciparum); SPR): 0.115 µM
CGACAAGAGAAATCGGAAATTAAAAAACACGCATGGGACTCTCACAGGCTAGAGCGACGAGAGCAGCACAAATACCCCTAGATACCCCAGACCCCTGATGCTCGATGAATGCCGCTATAGCTAGGGGGTATGGCGCCAGACATGAATTCACAGCGTTTCGGCGGCCGGCTGGCGCTTGTCACAGGTGCAGGC (dsDNA) — binding (T1, AfsR 1-980 (Streptomyces avermitilis); EMSA; double-stranded DNA, one strand shown): binds
mycosubtilin — leakage time constant (calcein leakage; DOPC/CHOL liposomes; concentration not given, with: 20 wt% PEG-8000): 14 ± 3 min
aspterric acid — inhibition (hypocotyl length; Arabidopsis thaliana Col-0 seeds; 3.125 µg/mL, 7 days, dark): 22.7%
Met-enkephalin-Arg-Phe — maximum possible effect (antinociception, tail-flick; male ICR-CD1 mice; intracerebroventricular, 50 µg/animal, 60 min): -7.13% and 7.83% and 20.7% and 3.42% and 1.19% and 14.8% and 13.4% and 13%
CLCGGKGKKLGKG — ABTS radical scavenging (absorbance at 734 nm; peptide; 1 mg/mL, 5 min, room temperature): 0.923 fraction (0-1)
GGCAATTCCCTTAGTTGGCCACCGTCGGCGGTCACGCAGGGCAATGGGCGGGACCCCGGGCGGCGCTCGGCGGAGCGGGCTCGCGCGGGGGTGATCCCTCGCCCTTCGCGCACTGCGACACTTCAGTCACGCTACGCTCACATGAATTCCGAATCAGGCAGGCATCTCGACATCAGACCGACAGGTCACCCAGGCATCCCCAGTTCACGGCAGAACGGCACAAGGCGAC (dsDNA) — binding (T1, AfsR 1-980 (Streptomyces avermitilis); EMSA; double-stranded DNA, one strand shown): no binding
insulin human — fold change (refers to: MAPK14 mRNA; uninfected mouse, brain; i.p., dose not given; relative to: PBS): 1.21
endothelin-1 — contraction (ETA-dependent contraction, agonist; isolated mesenteric vein; concentration not given, secreted by PC-3 cells, with: conditioned medium of PC-3 cells): active
KLGKGGGLLKKLK — ABTS radical scavenging (absorbance at 734 nm; peptide; 1 mg/mL, 5 min, room temperature): 0.0277 fraction (0-1)
CRQLRKGKFFSEGGSGGTSFEQFWAWLWP — CD8+ T cells in tumour-infiltrating lymphocytes (flow cytometry; peptide, Renca syngeneic tumour, mouse; 2.5 mg/kg, 10 days): 25.1%
colistin — CFU relative to caspofungin alone (Aspergillus fumigatus; conidia; 5 µM, with: caspofungin 0.2 µg/mL; relative to: caspofungin alone): 2.41 and 3.28 and 1.11
capreomycin sulfate — AUC(0-t) (guinea pig, serum; insufflation, dose not given, dry powder combination single dose): 4.37 µg·h/mL
fengycin — maximum fusion (calcein leakage; DOPC/DOPG/CHOL liposomes; concentration not given, with: 20 wt% PEG-8000): 13 ± 1%
GWTLNSAGYLLGPHAVDNHRSFNDKHGFT-NH2 (C-amide) — colon length (peptide, Arrb2 flox control mice, DSS colitis; ip, 3 µM, 2% DSS): 5.7 cm and 5.6 cm and 5.9 cm and 5.2 cm and 5.4 cm
KKGLGGKLLACKG — ABTS radical scavenging (absorbance at 734 nm; peptide; 1 mg/mL, 5 min, room temperature): 0.927 fraction (0-1)
nonaarginine — koff (PorA peptide pore; peptide binding, planar bilayer single-channel recording; 0.5 µM, pH 7.4, -20 mV, cis side, 150 mM KCl): 196 ± 20 s⁻¹
KLKGLLGGKKKLK — ABTS radical scavenging (absorbance at 734 nm; peptide; 1 mg/mL, 5 min, room temperature): 0.178 fraction (0-1)
EALYLVCGE — FOXP3+ Treg cells (tetramer binding, flow cytometry; peptide, tetramer-binding CD4+ thymocytes, female NOD mice, 6 weeks, thymus; dose not given): 82.6% and 86.4% and 43.8% and 76% and 61.5% and 53.3%
polymyxin B — maximum fusion (calcein leakage; DOPC/CHOL liposomes; concentration not given, with: 20 wt% PEG-8000): 61 ± 7%
GWTLNSAGYLLGPRRIDHLLMIKEMPIARGREEAPGA / YAVDNHRSFNDKHGFT-NH2 (C-amide) — mRNA level (RT-qPCR, refers to: Tgfb1; chicken, DSS-induced colitis, ileum; ip, 50 µM, unit not given; relative to: Actb): 0.0972 and 0.121 and 0.0853 and 0.106 and 0.0936 and 0.103 and 0.0689

Some of these lines once more:
KLGKGGGLLKKLK — ABTS radical scavenging (absorbance at 734 nm; peptide; 1 mg/mL, 5 min, room temperature): 0.0277 fraction (0-1)
CRQLRKGKFFSEGGSGGTSFEQFWAWLWP — CD8+ T cells in tumour-infiltrating lymphocytes (flow cytometry; peptide, Renca syngeneic tumour, mouse; 2.5 mg/kg, 10 days): 25.1%
